Measured values from different studies.
Parts stem from different laboratories: compare values within a part only.

Block 1 — technique: RNA Bind-n-Seq; molecule type: RNA; medium: in vitro; tested at: 1 µM; notes: whole 134-nt RNA, ends assumed; added: 150 mM KCl; relative to: input library; direction: higher = stronger binding
Target: Ras GTPase-activating protein-binding protein 1, C-terminal RGG region (G3BP1, Homo sapiens, UniProt Q13283)
UniProt Q13283, sequence (whole entry, looked up): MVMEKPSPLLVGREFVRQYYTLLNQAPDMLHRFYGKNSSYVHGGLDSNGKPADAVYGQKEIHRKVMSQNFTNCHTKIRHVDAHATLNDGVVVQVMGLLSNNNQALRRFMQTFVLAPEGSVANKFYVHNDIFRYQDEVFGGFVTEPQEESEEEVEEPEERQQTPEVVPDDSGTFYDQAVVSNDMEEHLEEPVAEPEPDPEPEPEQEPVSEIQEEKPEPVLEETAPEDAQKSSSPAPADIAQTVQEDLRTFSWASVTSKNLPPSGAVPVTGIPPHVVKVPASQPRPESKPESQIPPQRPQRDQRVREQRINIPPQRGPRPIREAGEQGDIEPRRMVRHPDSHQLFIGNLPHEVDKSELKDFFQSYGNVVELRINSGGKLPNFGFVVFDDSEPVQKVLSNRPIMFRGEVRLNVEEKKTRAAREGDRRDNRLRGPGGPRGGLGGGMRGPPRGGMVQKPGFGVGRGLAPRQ
Constant ends, left off below: GGGAGUUCUACAGUCCGACGAUC … UGGAAUUCUCGGGUGUCAAGG
Oligonucleotide | log2 enrichment
CACAGACAACACGCACCCACACAGACACAGAGGGAAGGGGUUGGGAUGGGGACAGGGUGCACAGCAGGUCGGGGUAGGACCCCAGCCCCU | -1.52
UGGGAGGUGGAUUUUGUUUAUUUUUUUAGCUCAUUUCCAGGGGUGGGAAUUUUUUUUUAAUAUGUGUCAUGAAUACAGUUGUUUUUGAAA | 2.9
CUCAAGUCCUGUGCUACACAUCGUAUGUACCGAAUCGGGGUUGGUUGGUUGGGGAAAGUAUUAUGUUACGCCGUUCGGAUCUGCACUUCC | -0.582
UGGGAGGUGGAUUUUGUUUAUUUUUUUAGCUCAUUUCCAGGGGUGGGCAUUUUUUUUUAAUAUGUGUCAUGAAUAAAGUUGUUUUUGAAA | 3.36
CCUGUGCUACACAUCGUAUGUACCGAAUCGGGGAAAGGGGAAAAAAAGGGGUUUUUGGGGAAAGUAUUAUGUUACGCCGUUCGGAUCUGC | 0.75
CUGUGCUACACAUCGUAUGUACCGAAUCGGGUUUUUUUGGGAAAAAAAGGGAAAAAAAGGGAAAGUAUUAUGUUACGCCGUUCGGAUCUG | -2.15
UCCUGUGCUACACAUCGUAUGUACCGAAUCGGGGUUUUUUUGGGGUUUGGGGAAAGGGGAAAGUAUUAUGUUACGCCGUUCGGAUCUGCA | 1.99
UGGCCCUGGUGGCAUGCGGGGAGGAAGAGGUGGCCUCAUGGAUCGUGGUGGUCCCGGUGGAAUGUUCAGAGGUGGCCGUGAUGGAGACAG | 3
CCUGUGCUACACAUCGUAUGUACCGAAUCGGGUUUUUGGGUUUUUUUGGGUUUUUUUGGGAAAGUAUUAUGUUACGCCGUUCGGAUCUGC | -1.5
CCUGUGCUACACAUCGUAUGUACCGAAUCGGGGAGGGGUUUUUUUGGGGAAAAAAAGGGGAAAGUAUUAUGUUACGCCGUUCGGAUCUGC | -0.0652
UCAAGUCCUGUGCUACACAUCGUAUGUACCGAAUCGGGAGGGAAAGGGAAAGGGAAAGUAUUAUGUUACGCCGUUCGGAUCUGCACUUCC | 1.66
CACAGACAACACGCACCCACACAGACACAGAGGGAAGGGGUUGGGAUGGGGACAGGGUGCACAGCAGGGCGGGGUAGGACCCCAGCCCCU | -0.08
CACAGACAACACGCACCCACACAGACACAGAGGGAAGGGGUUGGGAUGGGGACAGGGUGCACAGCAGGGCGGGGUAGGACCCGAGCCCCU | -1.06
UGUGCUACACAUCGUAUGUACCGAAUCGGGGCCCCCCCGGGGCCCCCCCGGGCCCCCCCGGGGAAAGUAUUAUGUUACGCCGUUCGGAUC | -2.72

Block 2 — technique: protein binding microarray; molecule type: double-stranded DNA, one strand shown; medium: in vitro; tested at: not given; relative to: not given; direction: higher = stronger binding
Target: Histone acetyltransferase KAT6A, winged helix 2, GST fusion (KAT6A, Homo sapiens, UniProt Q92794, residues 85-181)
Notes: 8-mer, flanks averaged, mean of 2 arrays, mostly near background
Residues (chain): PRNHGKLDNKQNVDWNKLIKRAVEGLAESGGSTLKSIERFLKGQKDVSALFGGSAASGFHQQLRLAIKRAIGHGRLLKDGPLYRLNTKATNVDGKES
Oligonucleotide | E-score
CTGCCGCA | 0.0108
CACCCGTG | 0.0281
AGCATCCC | -0.156
CGGGACGA | 0.159
CAGGCCTG | -0.0877
CGCGAGTC | 0.0808
CCCTGCCG | 0.157
TCAGCGCA | -0.0101
CAGTGAGC | -0.0395
GCGGAAGC | 0.182
ATCAACCC | 0.0563
GTCACACA | -0.0657
ATTGTCGA | -0.0717
CAGTTTCA | -0.0512
CACCCTAG | 0.0581
AAGACCCG | 0.00997
ACGCTAGG | -0.203
AGCACGCT | -0.027
GGTGGTAC | -0.0183
GCCAATCC | 0.048
GTCACCAC | -0.0234
GGCGCTAC | 0.0135
ACGTTCCG | -0.268
CTGGCCAA | -0.0543

Block 3 — technique: RNA Bind-n-Seq; molecule type: RNA; medium: in vitro; tested at: 365 nM; relative to: no-protein control; direction: higher = stronger binding
Target: RNA binding protein fox-1 homolog 2, RRM domain, GST-SBP tag (RBFOX2, Homo sapiens, UniProt O43251-10, residues 100-194)
Notes: natural RNA segment, single round, ends assumed
Constant ends, left off below: GGGAGUUCUACAGUCCGACGAUC … UGGAAUUCUCGGGUGCCAA
Target sequence (chain): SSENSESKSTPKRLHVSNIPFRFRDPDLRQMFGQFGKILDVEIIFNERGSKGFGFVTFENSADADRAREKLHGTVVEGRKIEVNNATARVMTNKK
Oligonucleotide | RBNS enrichment (R)
UCUGGCUUUGAAAGGGCCCGAGUGCUCCCAGUGUAGCUUCGUCACAUCGUCACGAGCCCCUGUGGUCAUGGGCGACCUCACACCUCCCUCCCUGAGUUCUGCUCUGACAU | 0.626
UCCCAUCCCCCGUCUGUCCACUAACUGUACCGCACCGGCCAUUAAAAGAUGAAGGCAGACCGCUGCACCGCCGCCUGCAAGCAGAGUUUGUGCGUGGACGGGGGCUGGGA | 0.369
CACCCACCAACAGGAAGGCCUGGUGAAGGUUCAGGAAGUCUGGAGAGUCUCCCCAGACCAAGGUCAGAAAGGAUGCCCAGAGGUUCCAAGAACAGAGCAACAGCAACGGA | 0.252
UGUCACUCAGGAAUGAUUUGGAAUGUUAGGGAUAGUCACCCACCACCACAGUGCUAGGUUUCAGUGACCAGGAGCGAUGUGGAGCUGAGUCUAGUGGGAGUCCAGAGGUA | 1.91
ACAGGUCGGCUGUGGGGCAGCUCAGUACCCUCCCUGAGGCUCACGGUGGCUCCGAGCAUGAGGUCCGCCUCCUGGGCGAGACCCAGCAGUGGACAGCAUGGUCCUCACAC | 0.892
ACAAAUCUUGUGGAAAUCCGAUAUGUUUUAAUGUGGCUACCUAGGUUUAAGGUUCACGUUAGUCCCCCCAUUCCAUCUAGAAGUCCAUUUUGAAAGAUUUUUGUAAAUUC | 0.298
CCCUAGGUUUAGAAAAACAACUUUAGAAAUUCCUCCUCCCACCCUCGUAAACCCUGGCACUCCCUCCUUUAAUGGGGGCUCCCAUAAGACCCAUCUUUCCCUGCAGCUCA | 0.934
AGUCAAUGCAUUAACCCUCAUCUGUGUAUUAUUUGUUCACAAGUUCCAGAGGUUGAAGGACUGACUCUCACAUCUGUCCUGAGGUAGAGAGUAGGGGUGGGGACAAGGUA | 0.922
CUUGUUUGUUUUUUGGCAUGAAUUGUCAUCUUUGGUGUUUUUUUAACCCCCAGCCCCUCAAAAAAAUAAGGCCUCCAGGUAUCAAGAUCUCAUAUUAGGAUUUUCUGUCC | 0.484
AGCUUCUAACCAUUAUGUGCUGAGUAAAUAAUGCUACCUAUGAUUUUAGAACGGAUUUCUCAGGUAUAGGGAGUUGAUUUCUUAAUACUUUUUGAAUUAUGAAAAAUAGC | 0.819
UUGUCAACUUAAGCGUCUGUUUACCAAAGACCGGGAACAGGGGCCCAAACAUGUCCAGUCCUCUUCUUCCCUCUGCUGGAACCUUUGGGGACACUCAAGGGUACAGUUUG | 0.263
GGUGGGGGGAACCUGCACCUGGUAACUGGGGUGCAAACCUCUUCAAGAAGGUAACAUCAAAUAAAUAAGUCAAGCAGAGGACUUCCUGCCAAUCUCUUCUGUGAGGCAUC | 0.318

Block 4 — technique: RNAcompete; molecule type: RNA; medium: in vitro; tested at: 20 nM; notes: 7-mer, probes averaged, single round; relative to: mean of 7-mers; direction: higher = stronger binding
Target: PABPC1L2, full length, GST fusion (mouse, UniProt A0ABA7IW68)
Construct (chain): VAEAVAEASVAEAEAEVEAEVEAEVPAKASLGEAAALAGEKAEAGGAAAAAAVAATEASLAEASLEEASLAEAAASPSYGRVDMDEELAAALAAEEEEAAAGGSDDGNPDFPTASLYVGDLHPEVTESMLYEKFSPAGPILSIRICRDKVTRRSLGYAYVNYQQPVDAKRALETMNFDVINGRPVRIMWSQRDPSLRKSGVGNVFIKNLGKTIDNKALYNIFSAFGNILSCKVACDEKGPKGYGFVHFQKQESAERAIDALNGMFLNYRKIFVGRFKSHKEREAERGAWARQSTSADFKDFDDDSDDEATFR
Oligonucleotide | 7-mer Z-score
GGCCGCC | -0.36
UUACUGG | 0.0334
UACAGGC | 0.195
CAUAUGC | -0.238
GUUGUGU | -0.472
GGUUCCU | -0.173
CUCGCCC | -0.467
AAGCGUA | 0.0841
GGCGCUA | 0.111
ACCGCUG | -0.315
GUCGCGU | -0.385
CGCAGUG | -0.159
UGGCGAU | -0.0863
CGUGUGU | -0.364
AGGCCCC | -0.4
CAGUCCG | -0.275
CGGCGCG | -0.157
UAAUAGG | -0.0609
CUGAUAG | -0.267
ACCGCGG | -0.17
CGUGCUG | -0.226
ACUCUUA | -0.295
AGAUUGU | -0.365
CAGAACA | 0.0895
UCCCCAU | -0.411

Block 5 — technique: aptamer microarray, sandwich; molecule type: DNA with 2'F-ANA; medium: in vitro; tested at: 200 nM; added: Cy3 exosite-II aptamer, 400 nM; direction: higher = stronger binding; oligonucleotide: GGTTGGTGTGGTTGG
Target: Prothrombin, mature alpha-thrombin (F2, Homo sapiens, UniProt P00734)
Notes: whole 15-mer aptamer, many near background
Modification | mean fluorescence intensity [a.u.]
2'F-ANA at 5 6 8 9 12 13 14 | 51
2'F-ANA at 1 2 6 10 11 15 | 52.2
2'F-ANA at 3 5 6 7 8 10 14 | 48.6
2'F-ANA at 5 9 11 12 14 | 63.3
2'F-ANA at 1 3 4 11 14 | 69.7
2'F-ANA at 1 2 3 5 6 8 10 11 12 14 15 | 58.6
2'F-ANA at 1 5 10 11 13 14 15 | 45.9
2'F-ANA at 1 2 3 4 5 8 9 12 13 14 15 | 49
2'F-ANA at 2 3 6 7 9 11 12 | 759
2'F-ANA at 1 4 5 6 8 13 15 | 51.3
2'F-ANA at 2 3 5 7 10 11 | 70.8
2'F-ANA at 6 7 12 13 14 15 | 214
2'F-ANA at 1 3 4 7 11 12 13 14 | 88.3
2'F-ANA at 1 4 5 6 8 13 | 51.3
2'F-ANA at 6 8 9 | 532
2'F-ANA at 3 6 8 9 10 12 13 14 15 | 378
2'F-ANA at 1 3 10 12 15 | 134
2'F-ANA at 4 7 9 10 11 15 | 82.6
2'F-ANA at 2 3 10 11 12 14 | 305
2'F-ANA at 1 5 7 9 13 15 | 47.8
2'F-ANA at 2 7 10 12 14 | 99.8
2'F-ANA at 1 4 5 6 10 11 13 14 15 | 47.4
2'F-ANA at 1 3 10 13 | 76.9
2'F-ANA at 3 4 6 7 8 11 12 15 | 744
2'F-ANA at 2 3 4 5 12 13 14 | 49.8

Some of these lines once more (block 2):
Oligonucleotide | E-score
GTCACACA | -0.0657
AGCACGCT | -0.027
CTGGCCAA | -0.0543
CACCCGTG | 0.0281
ATCAACCC | 0.0563
CTGCCGCA | 0.0108
AAGACCCG | 0.00997
CAGTTTCA | -0.0512
TCAGCGCA | -0.0101
